Results of several laboratories.
Numbered parts are unrelated; each lists some results of a single study. Positions count from the first letter of the parent shown.
Sequence of UniProt Q9ZSY8 (whole entry, looked up): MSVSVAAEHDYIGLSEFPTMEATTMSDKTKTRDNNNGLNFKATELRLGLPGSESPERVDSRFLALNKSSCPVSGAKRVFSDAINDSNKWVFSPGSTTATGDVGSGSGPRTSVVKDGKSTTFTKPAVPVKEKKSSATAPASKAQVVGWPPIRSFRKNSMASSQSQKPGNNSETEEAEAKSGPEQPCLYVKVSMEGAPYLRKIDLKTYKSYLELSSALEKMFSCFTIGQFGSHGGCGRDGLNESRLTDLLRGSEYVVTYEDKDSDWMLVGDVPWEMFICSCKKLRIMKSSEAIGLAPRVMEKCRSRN

Series 1
Target: TAR DNA-binding protein 43, full length, His tag (TARDBP, Homo sapiens, UniProt Q13148, residues 1-414)
Technique: RNA Bind-n-Seq
Form: RNA
Sample: in vitro
Tested at: 20 nM
Setting: 6-mer, flanks averaged, single round
Added: 150 mM KCl
Relative to: input library
Direction: higher = stronger binding
| Sequence | 6-mer enrichment (R) |
| --- | --- |
| AAUUUA | 0.647 |
| AGCUGA | 0.783 |
| UUGACC | 0.659 |
| GAAUUU | 0.636 |
| UGAACA | 0.67 |
| UACUGG | 0.915 |
| GACAAU | 0.712 |
| GUACGA | 0.954 |

Series 2
Target: POU domain, class 5, transcription factor 1, POU domain (Pou5f1, Mus musculus, UniProt P20263, residues 131-289)
Sequence of UniProt P20263 (131-289, looked up): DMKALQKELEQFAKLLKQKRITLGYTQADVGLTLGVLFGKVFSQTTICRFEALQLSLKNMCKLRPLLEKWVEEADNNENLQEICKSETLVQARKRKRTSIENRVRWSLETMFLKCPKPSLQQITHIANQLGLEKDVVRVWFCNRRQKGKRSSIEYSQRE
Technique: Spec-seq
Form: double-stranded DNA, one strand shown
Sample: in vitro
Tested at: not given
Setting: whole probe, mean of replicates
Relative to: not given
Direction: lower = stronger binding
All sequences stand within: GAGTCGTCTCGTCAGCAC … CCGTAGAGCACTCAGGTC
| Sequence | relative binding energy |
| --- | --- |
| ATGGAAAT | -0.339 ln ratio |
| GGGGTAAT | 0.841 ln ratio |
| ATAGCCAT | 0.473 ln ratio |
| ATGCCTCA | 0.68 ln ratio |
| ATGCTAAC | 0.0512 ln ratio |
| CTGTTAAT | 0.331 ln ratio |
| ATGCGGCA | 0.403 ln ratio |
| ATGCCTAA | 0.367 ln ratio |

Single results of other studies
ARF10: ARF10 575-693 (Arabidopsis thaliana, UniProt Q9SKN5)
Sequence of UniProt Q9SKN5 (whole entry, looked up): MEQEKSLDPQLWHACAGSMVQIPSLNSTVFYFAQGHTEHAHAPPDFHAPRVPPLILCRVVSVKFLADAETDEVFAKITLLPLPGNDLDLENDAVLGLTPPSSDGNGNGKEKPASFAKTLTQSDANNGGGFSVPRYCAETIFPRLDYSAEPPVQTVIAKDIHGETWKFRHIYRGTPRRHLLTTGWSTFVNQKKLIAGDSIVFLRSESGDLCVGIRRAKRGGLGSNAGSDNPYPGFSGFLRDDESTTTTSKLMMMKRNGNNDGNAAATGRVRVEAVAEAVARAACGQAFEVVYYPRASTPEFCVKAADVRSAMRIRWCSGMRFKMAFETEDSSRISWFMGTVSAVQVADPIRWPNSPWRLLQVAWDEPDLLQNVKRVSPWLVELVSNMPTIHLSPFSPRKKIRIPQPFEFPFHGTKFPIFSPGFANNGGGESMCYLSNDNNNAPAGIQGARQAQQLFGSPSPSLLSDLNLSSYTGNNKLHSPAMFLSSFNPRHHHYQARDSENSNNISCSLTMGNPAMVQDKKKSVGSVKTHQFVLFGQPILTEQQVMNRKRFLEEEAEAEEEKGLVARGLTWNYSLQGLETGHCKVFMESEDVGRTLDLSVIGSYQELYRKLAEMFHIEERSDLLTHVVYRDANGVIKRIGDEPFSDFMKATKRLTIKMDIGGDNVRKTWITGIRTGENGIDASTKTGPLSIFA
P1: viral docking peptide; KKVKRRLFETREL; partner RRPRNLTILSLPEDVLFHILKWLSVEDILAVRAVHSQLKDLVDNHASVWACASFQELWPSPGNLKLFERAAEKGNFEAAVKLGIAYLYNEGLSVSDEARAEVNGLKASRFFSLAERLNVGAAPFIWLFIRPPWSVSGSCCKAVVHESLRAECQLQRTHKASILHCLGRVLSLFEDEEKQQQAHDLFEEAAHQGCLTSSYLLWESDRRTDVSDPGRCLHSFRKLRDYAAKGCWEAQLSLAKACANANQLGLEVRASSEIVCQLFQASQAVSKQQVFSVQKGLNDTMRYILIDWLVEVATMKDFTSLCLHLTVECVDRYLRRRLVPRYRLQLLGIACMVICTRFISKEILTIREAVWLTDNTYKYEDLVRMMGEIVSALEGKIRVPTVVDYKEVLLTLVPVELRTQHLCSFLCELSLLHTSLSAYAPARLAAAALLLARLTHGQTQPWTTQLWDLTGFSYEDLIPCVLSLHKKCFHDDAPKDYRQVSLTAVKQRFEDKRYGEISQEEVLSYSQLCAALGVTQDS
B1: ARF5 788-902 (Arabidopsis thaliana, UniProt P93024); chain ATPRVRTYTKVQKTGSVGRSIDVTSFKDYEELKSAIECMFGLEGLLTHPQSSGWKLVYVDYESDVLLVGDDPWEEFVGCVRCIRILSPTEVQQMSEEGMKLLNSAGINDLKTSVS
B2: ARF2 727-859 (Arabidopsis thaliana, UniProt Q94JM3); chain TKTNSSRSCTKVHKQGIALGRSVDLSKFQNYEELVAELDRLFEFNGELMAPKKDWLIVYTDEENDMMLVGDDPWQEFCCMVRKIFIYTKEEVRKMNPGTLSCRSEEEAVVGEGSDAKDAKSASNPSLSSAGNS
B3: IAA34 (Arabidopsis thaliana, UniProt Q9C5X0); chain MYCSDPPHPLHLVASDKQQKDHKLILSWKKPTMDSDPLGVFPNSPKYHPYYSQTTEFGGVIDLGLSLRTIQHEIYHSSGQRYCSNEGYRRKWGYVKVTMDGLVVGRKVCVLDHGSYSTLAHQLEDMFGMQSVSGLRLFQMESEFCLVYRDEEGLWRNAGDVPWNEFIESVERLRITRRNDAVLPF
| Substance | target or system | test | system | setting | how to read | measurement | result |
| --- | --- | --- | --- | --- | --- | --- | --- |
| IAA27 (Arabidopsis thaliana, UniProt Q9ZSY8) | ARF10 | two-hybrid | – | – | relative to: out of 4 tests, higher = firmer interaction | positive tests | 1 |
| P1 E12A | CCNF, cyclin fold, Cln2 fusion (human) | yeast growth competition, sequencing | yeast | strong parent motif | relative to: not given, higher = stronger binding | normalised enrichment score | 6.7 |
| B1 (ARF5 788-902) | ARF10 | two-hybrid | – | – | relative to: out of 4 tests, higher = firmer interaction | positive tests | 0 |
| B2 (ARF2 727-859) | ARF10 | two-hybrid | – | – | relative to: out of 4 tests, higher = firmer interaction | positive tests | 0 |
| B3 (IAA34) | ARF10 | two-hybrid | – | – | relative to: out of 4 tests, higher = firmer interaction | positive tests | 1 |

Repeated from above (single results of other studies):
| Substance | target or system | test | system | setting | how to read | measurement | result |
| --- | --- | --- | --- | --- | --- | --- | --- |
| B1 (ARF5 788-902) | ARF10 | two-hybrid | – | – | relative to: out of 4 tests, higher = firmer interaction | positive tests | 0 |
